Results from different studies.
Each numbered part is a random draw from the data of one study; scales do not carry over between parts.

Study 1 — method: protein binding microarray; molecule type: double-stranded DNA, one strand shown; medium: in vitro; tested at: not given; relative to: not given; direction: higher = stronger binding
Target: Histone acetyltransferase KAT6A, winged helix 2, GST fusion (KAT6A, Homo sapiens, UniProt Q92794, residues 85-181)
Setting: 8-mer, flanks averaged, mean of 2 arrays, mostly near background
Residues (chain): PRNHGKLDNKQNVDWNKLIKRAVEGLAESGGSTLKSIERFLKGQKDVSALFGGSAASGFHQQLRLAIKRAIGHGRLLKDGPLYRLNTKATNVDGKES
Oligonucleotide | E-score
GTAGGGCA | 0.00633
ATCTTCGG | 0.121
AACCTTTG | 0.0266
AGGGAATA | -0.0478
AAACAATC | 0.0959
AGCCACCT | -0.0965
AGCAAGAC | 0.124
CAGCATGC | 0.056
AAAAGGGT | -0.0972
ATCTGGTC | 0.00422
GACCCACC | 0.00891
TCACATGA | -0.125
GCAGATAA | 0.102
GCTCTTCA | 0.0351
CAAGCAGA | 0.163
CGGTAGTA | -0.112
CGCACCCA | 0.141

Study 2 — method: RNA Bind-n-Seq; molecule type: RNA; medium: in vitro; tested at: 365 nM; relative to: no-protein control; direction: higher = stronger binding
Target: RNA binding protein fox-1 homolog 2, RRM domain, GST-SBP tag (RBFOX2, Homo sapiens, UniProt O43251-10, residues 100-194)
Setting: natural RNA segment, single round, ends assumed
Shared flanks, not repeated: GGGAGUUCUACAGUCCGACGAUC … UGGAAUUCUCGGGUGCCAA
Target sequence (chain): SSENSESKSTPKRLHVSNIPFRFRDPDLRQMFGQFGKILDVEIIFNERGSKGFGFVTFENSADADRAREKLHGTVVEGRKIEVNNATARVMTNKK
Oligonucleotide | RBNS enrichment (R)
GCUGCUAAAGUUGCAAGUGAUUGAUAAUGGAUUUUUAACAGAGAAGUCUUUGUUUUUGAAAAACAAAAAUCAAAAACAGUAACUAUUUUAUAUGGAAAUGUGUCUUGAUA | 0.985
UGUGAAAAUGUAGCAUGCUGUCUAUGUGGACGCCCUAGGAUGAGUGAUGUGAAACGCUGCACUACUGCGGUGAAUGGGUUCACACAUGGGUAAUGAGCAAAACCGAAAGC | 11.9
UUGGUGACAGAAGGGACAGACACUUGUGCACAGGUGUCUUUGGUGAUGGGGUUUUUUUUUUUAUAACUUAGUAAAAAAAAAAAAAUGUAUGUGGAAUUCUGUCUCUUGGU | 3.48
AUUCUUUGUAAAUGUCCACACCCUACCGCAAAGUCUGGGGAGUCUUCUGGCUGGAAUGCUGUUCACGUCUGCAUCCAGCCCUGGGAUCGGCCUUCGUGUAUGGUUUCACC | 0.383
GCUUUCAAGUGCUGUCUGGGGGGGCCAGCCCCACGAGCCUCCAACCACAUUAGAGGCUGGGAACAGCCAGGAUGUUGCCAAAGCCCCUGGCCUUUCCUGUACACGCCUGU | 0.332
GUUCUUCACCUCUAUCCAAAGGACUUGAUUUGCAUGGUAUUGGAUAAAUCAUUUCAGUAUCCUCUCCAUCACAUGCCUGGCCCUUGCUCCCUUCAGCGCUAGACCAUCAA | 1.6
CACUUCCUGGAUGUUGCAAUAAUACAAACCAGUGUACCUCUGACCUCACCGGGAGAGCUGGGGCGCUUCGAAGAUAAUCCCUACCCUCUACAUCAAAUGCGGCUGAGGCA | 0.442
CUUAAGGAACUGCCCUGCCACUCACCCAGGUGACAGCCUGUAGCAGUGCAUGGAGACCCCUUUAGGCUCAGGGCUGCUCGAGCUCUGACUCUAACCCUGCUCCUUCCUAG | 0.348
CCCCCUCUCUGUGGCAGUUUCAUAUUUGCUAAUACGAAUUUGCUCAUUAAACAUUUUGUUGUAUUUUACUUUAUGGAUCCUCAUCUGUGUCCAGUGUGUCCGCCCGUCUC | 0.916
UAACUGCAAAAAGUUAGUCUUAUGUAUAGACAUUAUUUUCGUCGUAUGUUUCUAUAUUUUGAAACAGGUAUGUAACUUCUUCAUUUGAAGGAUAAGCUGGUUUGUGUUAA | 0.922
CAGGAGGAUAGUUGUUCUGUCUUGGGAGACGGUUUCCAAAAACUCCGAGAGACUUUCUGCUAAUGGUUCAGGAGGCGGAAGAGGAGCUCCUGGCCUCCCAGGUCACGCCA | 0.387
CGGAAAUCUUUAAGUUAUUUGUUGAGGUACCAUAUAUUUAGGGUGCUAGGGGCAAGUAAUGUUAAUAUGUGCAAUAGGAACUACUGGUUUGAAUGUGUAAAUGGGUGAUC | 1.55

Study 3 — method: competition protein-binding microarray; molecule type: double-stranded DNA, one strand shown; medium: in vitro; tested at: 2 µM; added: Pho4 competitor, 0.05 µM; direction: higher = stronger binding; shared flanks, not repeated: … GTCTTGATTCGCTTGACGCTGCTG
Target: Centromere-binding protein 1, full length, His-tagged (CBF1, Saccharomyces cerevisiae, UniProt P17106, residues 1-351)
UniProt P17106, sequence (whole entry, looked up): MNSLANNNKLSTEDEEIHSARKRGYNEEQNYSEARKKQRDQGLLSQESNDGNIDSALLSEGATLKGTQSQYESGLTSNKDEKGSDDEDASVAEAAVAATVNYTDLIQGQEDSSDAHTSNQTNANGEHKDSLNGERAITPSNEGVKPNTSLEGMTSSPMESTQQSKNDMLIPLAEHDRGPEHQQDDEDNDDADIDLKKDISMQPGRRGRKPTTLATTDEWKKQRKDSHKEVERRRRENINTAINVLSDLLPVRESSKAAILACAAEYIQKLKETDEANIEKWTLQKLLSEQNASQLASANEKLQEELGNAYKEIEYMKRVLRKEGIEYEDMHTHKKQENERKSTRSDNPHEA
Setting: whole 60-bp probe, lowest competitor level
Oligonucleotide | fluorescence intensity
CCGGGAGTTTTTCCGCACGCTAAAATCAAGACTCAA | 72.9 a.u.
GGTACAGCCGTCTACAACGTGTGTTAATTTGCTAAC | 99.1 a.u.
CAACAAACAGTAGCTCGCGTGGCCGAATGGCAACGC | 88.6 a.u.
CTTTCCCGATCTTGCCTTGTGGGTGTAGCACATTTG | 76.1 a.u.
CGGGGTTAAGTTTGGCTTGTGGGTGGCTTGCAGCAG | 56.4 a.u.
TATCGTCAATCAACAAGCATGACAGACCAGCAACAT | 117 a.u.
CTAACGAAGGTTTGCATTGTGGGTGACAAGCCAAGT | 70.2 a.u.
CTGACGGTAGCGCTCCAGGTGATGCTGGTGTTTCAT | 61.7 a.u.
CCACTAATTAGCTGTCATGTGCCTGCGAACGCCCAA | 839 a.u.
TAATGCCCGACATTGGACGTGGGACGATAAAGATTG | 60.8 a.u.
TTCTTAATTTTTTTGCACGTTTTTCAGCTTCTGGTT | 286 a.u.
ATAGTGGTGAGCTGGCACGTTTCTCCACACCTAGTA | 113 a.u.
CATACCCAACCTTTTCACGTGTCATAAGATATTTGT | 1150 a.u.
CATACCCAACCTTGTATTGTGGGTGAAGATATTTGT | 81.5 a.u.
AAATTACTAAGTTGCGCTGTGGGTGACGCCGTATGA | 65.4 a.u.

Study 4 — method: RNA Bind-n-Seq; molecule type: RNA; medium: in vitro; tested at: not given; relative to: input RNA pool; direction: higher = stronger binding
Target: RING finger protein unkempt homolog, zinc fingers 1-6, GST-SBP tag (UNK, Homo sapiens, UniProt Q9C0B0, residues 30-357)
UniProt Q9C0B0, sequence (30-357, looked up): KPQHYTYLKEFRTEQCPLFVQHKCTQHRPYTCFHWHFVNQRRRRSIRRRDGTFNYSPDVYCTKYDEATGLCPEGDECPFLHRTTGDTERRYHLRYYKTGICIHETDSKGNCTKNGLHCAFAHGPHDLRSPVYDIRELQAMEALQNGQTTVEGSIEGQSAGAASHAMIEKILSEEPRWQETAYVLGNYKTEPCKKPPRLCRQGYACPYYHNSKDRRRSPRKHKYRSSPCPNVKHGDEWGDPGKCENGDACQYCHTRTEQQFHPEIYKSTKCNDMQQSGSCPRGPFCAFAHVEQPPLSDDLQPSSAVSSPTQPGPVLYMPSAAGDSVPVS
Setting: RNA with constant flanks, human and mouse sites, ends assumed
Shared flanks, not repeated: GGGAGUUCUACAGUCCGACGAUC … CAACAGAGGAUUGAGCAUCA
Oligonucleotide | bound/input enrichment
AUUGGAAUUGACAUGGAGAUAUCAAAAAAUUUUCAACGUAUACUUCAGAGGCAAGGAUUUAAGUUUAAACUGAAUACAAAAGUUACUGGUGCCACCAAGAAGUCAGAUGGAAAAAUUGAU | 0.384 ratio
UCUUUAGAUCGGACUGCCCCACCAGAUGGUAGAGCUAGUGCUGAUCAUAUUGUUAUUUCCUUAUCUGAUAUGGCAUCUUCUAUCAUAGAAUCUGUAGUACCUAAACCUGAAGGGCCAGUU | 1.27 ratio
AAAUUAUGUACUGCAAAAAUUUUUUUAAAUCUUCCGCCUUAAUACUUCAUUUUUGUUUUUAAUUUCUGAAUGGCCCAGGUCUGAGGCCUCCCUUUUUUUUGUCCCCCCAACUUGAUGUAU | 3.6 ratio
UGAUGAGUAUUUGCAUUAUGAAUGUAUAAUCCAGACAUUAUUUGUAAAGCCUACAGUAUGUUUUUUUUACCUAACACUUUUUAUACUGUGUCUCGUCUCGACAAUAUGAUAUUGAAGUCU | 0.371 ratio
GAGGAGGUUCUGACUAAUAAGAAGACGACCUUCUUUGGUGGCAAUUCUAUCUCUAUGAUUGAUUACCUCAUCUGGCCCUGGUUUGAACGGCUGGAAGCAAUGAAGUUAAAUGAGUGUGUA | 0.264 ratio
GUUAUUCUCGUUCAAGUUAAUCCAGGUGAGACUUUCACAAUAAGAGCAGAGGAUGGAACACUUCAGUGCAUUCAAGGACCUGCUGAAGUUCCCAUGAUGUCACCCAAUGGAUCCAUUCCU | 0.169 ratio
GGUAUUUUCCAGUGAAGACUAUCGCCAAGAAUGCAUAUCAUUCUGCUUAUUUUAUUCUAGUGGAUAAAAAUUCAACGUAUAUUUAAGUGUAUUUUUGACAUCUGUGCUUGUCCAACACAG | 0.314 ratio
UUAAUUAAAGAAACAAAGCUCUCCACUGAGCCAAGUCCAGAGUUCUCUAAUUAUUCAGAAAUAGCAAAAUUUGAGAAGUCGGUGCCUGAUCACUGUGAGCUCGUGGAUGAUUCCUCACCC | 0.732 ratio
AUUCUCAAUGCCACCCAGGCAGAAAGCAAAGUGUUCUACUUAAAAAUGAAAGGAGACUACUUUAGGUAUCUUUCUGAAGUUGCAUCCGGAGAAAAUAAACAAACCACGGUGUCCAACUCC | 0.126 ratio
UUUAGAUUGAUCUUUCAAAACUGUGCUGAAUUCAAUGAGCCUGAUUCUGAAGUAGCCAAUGCUGGUAUAAAACUUGAAAGCUAUUUUGAAGAACUUCUAAAGAAUCUUUAUCCAGAAAAA | 0.163 ratio
UCACAGCGAUAGUCCUUAUUGCUAAAGGACUUGGCUUCCCUCGGAGUUUUACUGAUUUAUUUUUUUCUCUUUGCAUUGUGUACAUUAUCAUUGCUACAUCAGUUGUUACAGUGUUGAAAG | 0.279 ratio

Study 5 — method: RNA Bind-n-Seq; molecule type: RNA; medium: in vitro; tested at: 200 nM; setting: whole 134-nt RNA, ends assumed; added: 150 mM KCl; relative to: input library; direction: higher = stronger binding
Target: Ras GTPase-activating protein-binding protein 1, full length (G3BP1, Homo sapiens, UniProt Q13283)
UniProt Q13283, sequence (whole entry, looked up): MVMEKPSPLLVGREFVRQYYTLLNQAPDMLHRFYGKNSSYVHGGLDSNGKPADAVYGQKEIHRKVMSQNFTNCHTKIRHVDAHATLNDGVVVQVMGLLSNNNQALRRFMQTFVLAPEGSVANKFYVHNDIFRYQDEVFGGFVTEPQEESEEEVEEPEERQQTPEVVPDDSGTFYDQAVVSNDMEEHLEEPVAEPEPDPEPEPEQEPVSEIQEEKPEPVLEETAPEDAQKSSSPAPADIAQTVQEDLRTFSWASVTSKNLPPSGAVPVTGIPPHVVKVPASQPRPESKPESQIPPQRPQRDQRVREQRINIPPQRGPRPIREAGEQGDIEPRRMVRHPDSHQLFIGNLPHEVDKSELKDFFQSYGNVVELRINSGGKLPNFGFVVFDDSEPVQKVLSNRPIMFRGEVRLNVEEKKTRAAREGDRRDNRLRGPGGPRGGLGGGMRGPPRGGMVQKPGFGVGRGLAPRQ
Shared flanks, not repeated: GGGAGUUCUACAGUCCGACGAUC … UGGAAUUCUCGGGUGUCAAGG
Oligonucleotide | log2 enrichment
UUCACUCUUUGAAGGAACGUGGUACUUAGUUAGGGUGGAUGAAAAGCACAGAAGAACUUACGCUCGGCGUCCCACUCCAAAUGAUGACAC | 0.51
ACCAUGCAGGUGGGCAUCUUUGGGAAGAGGGGCAAGGGGGGGAUAGGGAGGGGGGUAACACUUUGGGAACAGGUGGUCCCAGGUCGUUUC | 1.59
UUCUUGCCUAUGCUGUGCGCCACACCAUCCAGGUGUACCGGCUCUCCAAGUACAACACGGAAGAAUUCAUCACAGUCUACCCCACCGACC | 0.522
CCUGUGCUACACAUCGUAUGUACCGAAUCGGGGCCCCCCCGGCCCCCCCGGGCCCCCCCGGAAAGUAUUAUGUUACGCCGUUCGGAUCUG | -0.167
CACAGACAACACGCACGCACACAGACACAGAGGGAAGGGGUUGGGAUGGGGACAGGGUGCACAGCAGGGCGGGGUAGGACCCCAGCCCCU | 1.01
CUCAAGUCCUGUGCUACACAUCGUAUGUACCGAAUCGGUUUGGUUUUUGGUGGAAAGUAUUAUGUUACGCCGUUCGGAUCUGCACUUCCA | -0.419
ACCAUGCAGGUGGGCAUCUUUGGGAAGUGGGGCAAGGGGAGGAUAGGGAGGGGGGUAACACUUUGGGAACAGGUGGUCCCAGGUCGUUUC | 1.12
UCAAGUCCUGUGCUACACAUCGUAUGUACCGAAUCGGGUGGGUUUUUGGGAGGGAAAGUAUUAUGUUACGCCGUUCGGAUCUGCACUUCC | 0.744
AGUCCUGUGCUACACAUCGUAUGUACCGAAUCGGGUUUUUGGGUUUUUGGUUUUUGGGAAAGUAUUAUGUUACGCCGUUCGGAUCUGCAC | -1.16
UAACUUUAGACGAGGAUCUGAUGGAUAUGGCAGUGGACGUGGAUUUGGGGAUGGCUAUAAUGGGUAUGGAGGAGGACCUGGAGGUGGCAA | 0.357
UGGGAGGUGGAUUUUGUUUAUUUUUUUAGCUCAUUUCCAGGGGUGGGAAUUUUUUUUUAAUAAGUGUCAUGAAUAAAGUUGUUUUUGAAA | 0.0885
CUCAAGUCCUGUGCUACACAUCGUAUGUACCGAAUCGGGUUGGGUUGGGGUUGGAAAGUAUUAUGUUACGCCGUUCGGAUCUGCACUUCC | 0.263
AGUAGCUAUGGUCAACAAAGCAGCUAUGGGCAGCAGCCUCCCACUAGUUACCCACCCCAAACUGGAUCCUACAGCCAAGCUCCAAGUCAA | 1.07
CCUCAAGUCCUGUGCUACACAUCGUAUGUACCGAAUCGGAAAAAGGUGGAGGAAAGUAUUAUGUUACGCCGUUCGGAUCUGCACUUCCAG | 0.0265
